Results from different studies.
Numbered parts are unrelated; each lists some results of a single study. Values joined by “and” are separate records of one study, mostly repeats; a detail may differ. pIC50: −log10 of the molar value.

Set 1
Target: Serine/threonine-protein kinase 26 (STK26, Homo sapiens, UniProt Q9P289)
Sequence of UniProt Q9P289 (whole entry, looked up): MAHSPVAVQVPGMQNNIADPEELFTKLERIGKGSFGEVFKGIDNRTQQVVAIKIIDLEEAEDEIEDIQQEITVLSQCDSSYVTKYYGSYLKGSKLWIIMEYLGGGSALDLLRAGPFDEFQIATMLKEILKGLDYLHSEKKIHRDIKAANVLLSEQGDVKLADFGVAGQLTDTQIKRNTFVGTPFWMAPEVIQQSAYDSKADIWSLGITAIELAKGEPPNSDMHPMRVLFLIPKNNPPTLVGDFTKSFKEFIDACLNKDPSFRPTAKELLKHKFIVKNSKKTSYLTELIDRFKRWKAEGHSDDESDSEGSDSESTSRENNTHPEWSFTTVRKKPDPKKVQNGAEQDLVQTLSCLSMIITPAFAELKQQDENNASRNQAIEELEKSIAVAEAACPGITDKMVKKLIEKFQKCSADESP
Read-out: enzyme activity
Action: inhibitor
Concentration: 0.5 µM
Reference: control
With `Cn1cnc2cc3c(Nc4cccc(Br)c4)ncnc3cc21` the remaining activity was 94.3%.
For `Cc1ccc(NC(=O)c2ccc(CN3CCN(C)CC3)cc2)cc1Nc1nccc(-c2cccnc2)n1`, the remaining activity was 103%.
`CN(C)CCCn1cc(C2=C(c3c[nH]c4ccccc34)C(=O)NC2=O)c2ccccc21` has a remaining activity of 37.2%.
With `CC(=O)O/N=C1/C(c2c(O)[nH]c3cc(Br)ccc23)=Nc2ccccc21` the remaining activity was 78.7%.
For `COc1ccc(-c2cnc3c(-c4ccsc4)cnn3c2)cc1`, the remaining activity was 95.7%.
With `CCC(=O)Nc1ccc2ncnc(Nc3cccc(Br)c3)c2c1` the remaining activity was 97.6%.
`Cc1nc(Nc2ncc(C(=O)Nc3c(C)cccc3Cl)s2)cc(N2CCN(CCO)CC2)n1` has a remaining activity of 84.1%.
`COc1ccc(Cl)cc1NC(=O)Nc1cc(C)nc2ccccc12` has a remaining activity of 77.6%.
`COc1cc2ncc(-c3ccccc3)nc2cc1OC` has a remaining activity of 109%.
`CCN1/C(=C/C(C)=O)Sc2ccc(OC)cc21` gave a remaining activity of 87.9%.
For `O=c1cc(N2CCOCC2)oc2c1ccc1ccccc12`, the remaining activity was 93.2%.
With `CC(C)c1nn(-c2c(Cl)cccc2Cl)c2nc(Cc3ccc(OCCO)cc3)[nH]c(=O)c12` the remaining activity was 46.8%.
`CCOc1cc2ncnc(Nc3cccc(Br)c3)c2cc1OCC` has a remaining activity of 94.9%.
For `C[S+]([O-])c1ccc(-c2nc(-c3ccncc3)c(-c3ccc(F)cc3)[nH]2)cc1` (centres unmarked), the remaining activity was 96.8%.
For `O=C(Nc1ccc(Cl)cc1)c1ccccc1NCc1ccncc1`, the remaining activity was 90.9%.
For `CC(C)[C@H](CO)Nc1nc(Nc2cccc(Cl)c2)c2ncn(C(C)C)c2n1`, the remaining activity was 100%.
With `O=C1NC(=O)/C(=C/c2ccc3nccnc3c2)S1` the remaining activity was 91%.
`COc1cc2ncnc(Nc3ccc(OCc4ccccc4)cc3)c2cc1OC` has a remaining activity of 91.6%.
For `CS(=O)(=O)CCNCc1ccc(-c2ccc3ncnc(Nc4ccc(OCc5cccc(F)c5)c(Cl)c4)c3c2)o1`, the remaining activity was 110%.
The remaining activity of `Nc1[nH]nc2nnc(-c3c(-c4ccccc4)nn4ccccc34)cc12` is reported as 75.9%.
`Cn1cc(/C=C2\C(=O)Nc3ccc(S(N)(=O)=O)cc32)c2ccccc21` gave a remaining activity of 101%.
`COc1cc2ncnc(N3CCN(C(=O)Nc4ccc(Oc5ccccc5)cc4)CC3)c2cc1OC` gave a remaining activity of 95.4%.

Set 2
Target: Calcium/calmodulin-dependent protein kinase type II subunit alpha (CAMK2A, Homo sapiens, UniProt Q9UQM7)
Sequence of UniProt Q9UQM7 (whole entry, looked up): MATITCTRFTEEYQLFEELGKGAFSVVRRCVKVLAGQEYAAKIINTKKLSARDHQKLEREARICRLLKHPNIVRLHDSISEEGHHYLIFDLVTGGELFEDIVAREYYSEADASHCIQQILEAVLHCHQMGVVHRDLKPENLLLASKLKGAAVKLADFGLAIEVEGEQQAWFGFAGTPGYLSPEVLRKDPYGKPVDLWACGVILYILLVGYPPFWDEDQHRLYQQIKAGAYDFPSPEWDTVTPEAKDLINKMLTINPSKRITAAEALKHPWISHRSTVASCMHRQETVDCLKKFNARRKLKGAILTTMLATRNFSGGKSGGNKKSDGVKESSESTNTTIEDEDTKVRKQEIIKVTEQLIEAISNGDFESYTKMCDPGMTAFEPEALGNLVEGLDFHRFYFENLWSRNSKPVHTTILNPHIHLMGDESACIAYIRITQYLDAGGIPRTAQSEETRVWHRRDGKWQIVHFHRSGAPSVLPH
Read-out: enzyme activity
Action: inhibitor
Concentration: 10 µM
`CCCCCCCCCCCCCC(=O)O` gave an inhibition of -89%.
`COc1ccc2cc(CCC(C)=O)ccc2c1` has an inhibition of 1%.
The inhibition of `CC(C)=CCc1c(O)ccc2c1O[C@H](c1ccc(O)cc1)CC2=O` is reported as -16%.
The inhibition of `COc1cc(O)c(CC=C(C)C)c(O)c1C(=O)/C=C/c1ccc(O)cc1` is reported as -2%.
With `Cc1cn[nH]c1` the inhibition was -2%.
`CCOc1cc(N)c(Cl)cc1C(=O)NCC1CN(Cc2ccc(F)cc2)CCO1` (centres unmarked) has an inhibition of 12%.
For `CC(C)(C)C(=O)OCOC(=O)[C@@H]1N2C(=O)[C@@H](N=CN3CCCCCC3)[C@H]2SC1(C)C`, the inhibition was -3%.
`CSCCC(N)C(=O)O` (racemic) gave an inhibition of -14%.
`O=C(CC(O)(CC(=O)OCc1ccc(O[C@@H]2O[C@H](CO)[C@@H](O)[C@H](O)[C@H]2O)cc1)C(=O)O)OCc1ccc(O[C@@H]2O[C@H](CO)[C@@H](O)[C@H](O)[C@H]2O)cc1` has an inhibition of -12%.
With `NS(=O)(=O)c1cc2c(cc1Cl)NC(C(Cl)Cl)NS2(=O)=O` (centres unmarked) the inhibition was -9%.
The inhibition of `O=C(O)CC(O)(CC(=O)OCc1ccc(O[C@@H]2O[C@H](CO)[C@@H](O)[C@H](O)[C@H]2O)cc1)C(=O)OCc1ccc(O[C@@H]2O[C@H](CO)[C@@H](O)[C@H](O)[C@H]2O)cc1` (some centres unmarked) is reported as 23%.
`O=c1[nH]cc(CO)c(=O)[nH]1` gave an inhibition of 0%.
With `CCc1c(C)[nH]c2c1C(=O)C(CN1CCOCC1)CC2` (centres unmarked) the inhibition was 0%.
The inhibition of `COc1cc2c(cc1OC)CC(=O)N(CCCN(C)C[C@H]1Cc3cc(OC)c(OC)cc31)CC2` is reported as -4%.
`Nc1nc2c(ncn2[C@@H]2O[C@H](COP(=O)(O)O)[C@@H](O)[C@H]2O)c(=O)[nH]1` has an inhibition of -9%.

Set 3
Cell line: normal organoid sample E
Technique: CellTiter-Glo
Host: human
Matrix: normal-adjacent epithelium
Concentration: 1 µM
Reference: DMSO
`Cc1noc([C@H]2C[C@@H](c3ccc(C(F)(F)F)cc3)CN(C(=O)N3CCS(=O)(=O)C3)C2)n1` has a viability of 128% and 98.5%.
With `COc1cc(-c2cn(C3CCc4c(F)cccc4N(CC(F)(F)F)C3=O)nn2)ccc1-n1cnc(C)c1` (centres unmarked) the viability was 129% and 114%.
`CC(=O)N1CCC(c2ccc(C(=O)NC3=NCCN3)cc2C(F)(F)F)CC1` gave a viability of 90.7% and 88.2%.
For `C[C@@H](c1cccc(C#N)c1)n1cc(Cl)cc(C(N)=O)c1=N`, the viability was 111% and 133%.
`CN1CCN(Cc2ccc(Nc3ncc(Cl)c(Nc4ccccc4S(=O)(=O)N(C)C)n3)cc2)CC1` gave a viability of 6.7% and 7.8%.
The viability of `COc1cc(-c2cn(C3CCc4ccccc4N(CC(F)(F)F)C3=O)nn2)ccc1-n1ccc(C)n1` (centres unmarked) is reported as 111% and 94.8%.
`Cn1cncc1[C@](O)(COc1ccc(C#N)cc1-c1ccc(OC(F)(F)F)cc1)c1ccc(C#N)cc1` gave a viability of 25.1% and 42.9%.
`CCC(=O)N[C@H]1CC[C@@H](C(=O)N(C)c2ccc(-c3nc4ccccc4o3)cc2)C1` gave a viability of 104% and 86.7%.

Set 4
Target: Synaptic vesicular amine transporter (SLC18A2, Homo sapiens, UniProt Q05940)
Sequence of UniProt Q05940 (whole entry, looked up): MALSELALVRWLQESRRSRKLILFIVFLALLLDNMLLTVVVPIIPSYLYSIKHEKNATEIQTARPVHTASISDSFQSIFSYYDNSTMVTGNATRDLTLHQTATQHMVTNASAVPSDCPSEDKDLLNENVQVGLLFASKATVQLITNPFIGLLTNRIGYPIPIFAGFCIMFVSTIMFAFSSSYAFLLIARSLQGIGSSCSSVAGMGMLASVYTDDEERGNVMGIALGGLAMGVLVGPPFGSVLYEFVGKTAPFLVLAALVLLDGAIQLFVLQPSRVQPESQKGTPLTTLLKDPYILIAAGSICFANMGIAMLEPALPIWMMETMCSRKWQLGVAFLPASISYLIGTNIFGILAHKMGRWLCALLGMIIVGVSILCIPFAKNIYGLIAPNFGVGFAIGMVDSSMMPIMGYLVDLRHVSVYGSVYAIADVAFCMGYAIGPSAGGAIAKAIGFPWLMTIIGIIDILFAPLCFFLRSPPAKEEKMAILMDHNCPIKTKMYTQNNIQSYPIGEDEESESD
Action: inhibitor
Notes: literature data
The pIC50 of `CC[C@@H]([C@H](C)O)n1ncn(-c2ccc(N3CCN(c4ccc(OC[C@@H]5CO[C@@](Cn6cncn6)(c6ccc(F)cc6F)C5)cc4)CC3)cc2)c1=O` is reported as less than 5.00.
`NNC(=O)c1ccncc1` gave a pIC50 of less than 5.00.
The pIC50 of `CN1CCN(C2=Nc3ccccc3Oc3ccc(Cl)cc32)CC1` is reported as 4.57.
The pIC50 of `Cc1nccn1CC1CCc2c(c3ccccc3n2C)C1=O` (centres unmarked) is reported as less than 5.00.
`CC(COc1ccccc1)NC(C)C(O)c1ccc(O)cc1` (centres unmarked) has a pIC50 of 5.41.
For `COc1ccccc1OCC(O)CN1CCN(CC(=O)Nc2c(C)cccc2C)CC1` (centres unmarked), the pIC50 was less than 5.00.
For `Cn1cnc2c(F)c(Nc3ccc(Br)cc3Cl)c(C(=O)NOCCO)cc21`, the pIC50 was less than 5.00.
`CCCCN(CCCC)CCC(O)c1cc2c(Cl)cc(Cl)cc2c2cc(C(F)(F)F)ccc12` (centres unmarked) gave a pIC50 of 6.03.
`c1cnc(N2CCN(Cc3ccc4c(c3)OCO4)CC2)nc1` gave a pIC50 of less than 5.00.
`CC(C)NCC(O)COc1cccc2[nH]ccc12` (centres unmarked) has a pIC50 of less than 5.00.
With `Nc1ccn([C@@H]2CS[C@H](CO)O2)c(=O)n1` the pIC50 was less than 5.00.
`CC(C)(C)NC(=O)[C@@H]1CN(Cc2cccnc2)CCN1C[C@@H](O)C[C@@H](Cc1ccccc1)C(=O)N[C@H]1c2ccccc2C[C@H]1O` has a pIC50 of less than 5.00.
The pIC50 of `CCN(CC)CCOC(=O)c1ccc(N)cc1` is reported as less than 5.00.
`CCn1c(=O)c2c(nc(/C=C/c3ccc(OC)c(OC)c3)n2C)n(CC)c1=O` gave a pIC50 of less than 5.00.
The pIC50 of `COc1c(N2C[C@@H]3CCCN[C@@H]3C2)c(F)cc2c(=O)c(C(=O)O)cn(C3CC3)c12` is reported as less than 5.00.
For `CCN(CC)CC#CCOC(=O)C(O)(c1ccccc1)C1CCCCC1` (centres unmarked), the pIC50 was 5.17.
`Clc1ccc(CCCOCCCN2CCCCC2)cc1` gave a pIC50 of 5.44.
`Nc1nnc(-c2cccc(Cl)c2Cl)c(N)n1` has a pIC50 of less than 5.00.
The pIC50 of `C[C@H](NCc1ccc(OCc2cccc(F)c2)cc1)C(N)=O` is reported as less than 5.00.
The pIC50 of `N#Cc1ccc(C(c2ccc(C#N)cc2)n2cncn2)cc1` is reported as less than 5.00.

A few entries again (set 4):
The pIC50 of `Cc1nccn1CC1CCc2c(c3ccccc3n2C)C1=O` (centres unmarked) is reported as less than 5.00.
`Nc1nnc(-c2cccc(Cl)c2Cl)c(N)n1` has a pIC50 of less than 5.00.
With `Nc1ccn([C@@H]2CS[C@H](CO)O2)c(=O)n1` the pIC50 was less than 5.00.
`CCCCN(CCCC)CCC(O)c1cc2c(Cl)cc(Cl)cc2c2cc(C(F)(F)F)ccc12` (centres unmarked) gave a pIC50 of 6.03.
The pIC50 of `CC[C@@H]([C@H](C)O)n1ncn(-c2ccc(N3CCN(c4ccc(OC[C@@H]5CO[C@@](Cn6cncn6)(c6ccc(F)cc6F)C5)cc4)CC3)cc2)c1=O` is reported as less than 5.00.
The pIC50 of `N#Cc1ccc(C(c2ccc(C#N)cc2)n2cncn2)cc1` is reported as less than 5.00.
For `COc1ccccc1OCC(O)CN1CCN(CC(=O)Nc2c(C)cccc2C)CC1` (centres unmarked), the pIC50 was less than 5.00.
`Clc1ccc(CCCOCCCN2CCCCC2)cc1` gave a pIC50 of 5.44.
For `CCN(CC)CC#CCOC(=O)C(O)(c1ccccc1)C1CCCCC1` (centres unmarked), the pIC50 was 5.17.
